Experimental data gathered from unrelated publications.
Organism: Klebsiella pneumoniae

For `CC[C@H]1OC(=O)[C@H](C)[C@@H](OC(=O)Cc2ccccc2Cl)[C@H](C)[C@@H](O[C@@H]2O[C@H](C)C[C@H](N(C)C)[C@H]2O)[C@](C)(OC)C[C@@H](C)C(=O)[C@H](C)[C@@H](O)[C@]1(C)O`, the MIC was greater than 32 µg/mL (microbial growth; ATCC700603).
The MIC of `CC[C@H](C)[C@H](NC(=O)[C@H](CCC(N)=O)NC(=O)[C@H](Cc1ccccc1)NC(=O)[C@H](CC(N)=O)NC(=O)[C@H](CCCCN)NC(=O)[C@H](CC(C)C)NC(=O)[C@H](CCCNC(=N)N)NC(=O)[C@H](CCCCN)NC(=O)[C@H](CCCCN)NC(=O)[C@@H](NC(=O)[C@H](CO)NC(=O)[C@H](CCCCN)NC(=O)CNC(=O)[C@H](CC(C)C)NC(=O)[C@H](CCCCN)NC(=O)[C@H](CCCCN)NC(=O)[C@H](CC(C)C)NC(=O)[C@H](CCCCN)NC(=O)[C@H](CCCCN)NC(=O)[C@H](CCCNC(=N)N)NC(=O)[C@H](CC(C)C)NC(=O)CNC(=O)[C@@H](N)CCCNC(=N)N)[C@@H](C)CC)C(=O)NCC(=O)N[C@@H](Cc1ccccc1)C(=O)N[C@@H](CO)C(=O)N[C@H](C(=O)N1CCC[C@H]1C(=O)N[C@@H](Cc1ccccc1)C(=O)N[C@@H](C)C(=O)NCC(=O)O)C(C)C` is reported as 8 µg/mL (broth microdilution; ATCC 43816; 16 h, 37 °C, cation-adjusted Mueller-Hinton broth).
For `CCCCCCC#Cc1cncc(-c2nnc(SCc3cc([N+](=O)[O-])cc([N+](=O)[O-])c3)n2C)c1`, the MIC was greater than 64 µg/mL (microbial growth, broth dilution; DSM30104).
`C#CCNC(=O)C(C)(C)O/N=C(\C(=O)N[C@@H]1C(=O)N(S(=O)(=O)O)[C@H]1C)c1csc(N)n1` has an MIC of 128 µg/mL (agar dilution; 16-14 ESBL).
For `c1ccc(CN2CCOCCOCCN(CCCCCCCCCCCCN3CCOCCOCCN(CCCCCCCCCCCCN4CCOCCOCCN(Cc5ccccc5)CCOCCOCC4)CCOCCOCC3)CCOCCOCC2)cc1`, the MIC was 35 µM (ATCC BAA-2146).
With `CC(C)C[C@@H]1NC(=O)[C@@H](CC(C)C)NC(=O)[C@H](CCN)NC(=O)[C@@H](NC(=O)[C@H](CCN)NC(=O)[C@@H](NC(=O)CCOCCOCCOCCN=[N+]=[N-])[C@@H](C)O)CCNC(=O)[C@H]([C@@H](C)O)NC(=O)[C@H](CCN)NC(=O)[C@H](CCN)NC1=O` the MIC was 64 µg/mL (broth microdilution; ATCC 27736, cation-adjusted Mueller-Hinton broth; 18 to 20 h, 37 °C, 0.002% polysorbate 80).
`CC[C@H]1OC(=O)[C@H](C)[C@@H](OC(=O)Cc2ccc3c(c2)OCO3)[C@H](C)[C@@H](O[C@@H]2O[C@H](C)C[C@H](N(C)C)[C@H]2O)[C@](C)(OC)C[C@@H](C)C(=O)[C@H](C)[C@@H](O)[C@]1(C)O` has an MIC of greater than 32 µg/mL (microbial growth; ATCC700603).
`CC(C)C[C@@H]1NC(=O)[C@@H](CC(C)C)NC(=O)[C@H](CCN)NC(=O)[C@@H](NC(=O)[C@H](CCN)NC(=O)[C@@H](NC(=O)CCCCN=[N+]=[N-])[C@@H](C)O)CCNC(=O)[C@H]([C@@H](C)O)NC(=O)[C@H](CCN)NC(=O)[C@H](CCN)NC1=O` has an MIC of 4 µg/mL (broth microdilution; ATCC 13883, cation-adjusted Mueller-Hinton broth; 18 to 20 h, 37 °C, 0.002% polysorbate 80).
With `CCCCCCCC(=O)N[C@@H](CCN)C(=O)N[C@H](C(=O)N[C@@H](CCN)C(=O)N[C@H]1CCNC(=O)[C@H]([C@@H](C)O)NC(=O)[C@H](CCN)NC(=O)[C@H](CCN)NC(=O)[C@H](CC(C)C)NC(=O)[C@@H](Cc2ccccc2)NC(=O)[C@H](CCN)NC1=O)[C@@H](C)O` the MIC was 16 µg/mL (broth microdilution; ATCC 13883).
`CCCCCCn1cc[n+](CCCCCCOc2cc(OCCCCCC[n+]3ccn(CCCCCC)c3)cc(OCCCCCC[n+]3ccn(CCCCCC)c3)c2)c1.[Br-].[Br-].[Br-]` has an MIC of 1 µM (ATCC 4352).
`CCCCCCCCCCCCCCCCCCn1cc(CN(CCC(=O)NCCN(CCC(=O)NCCN(CCC(=O)NCCN(C)C)CCC(=O)NCCN(C)C)CCC(=O)NCCN(CCC(=O)NCCN(C)C)CCC(=O)NCCN(C)C)CCC(=O)NCCN(CCC(=O)NCCN(CCC(=O)NCCN(C)C)CCC(=O)NCCN(C)C)CCC(=O)NCCN(CCC(=O)NCCN(C)C)CCC(=O)NCCN(C)C)nn1` gave an MIC of greater than 96 µg/mL (ATCC 43816, LB broth; 18 h).
For `CN[C@H](CC(C)C)C(=O)N[C@H]1C(=O)N[C@@H](CC(N)=O)C(=O)N[C@H]2C(=O)N[C@H]3C(=O)N[C@H](C(=O)N[C@H](C(=O)NCc4cn(CC(=O)N[C@H](C(=O)N[C@@H](CCN)C(=O)N[C@H]5CCNC(=O)[C@H]([C@@H](C)O)NC(=O)[C@H](CCN)NC(=O)[C@H](CCN)NC(=O)[C@H](CC(C)C)NC(=O)[C@@H](CC(C)C)NC(=O)[C@H](CCN)NC5=O)[C@@H](C)O)nn4)c4cc(O)cc(O)c4-c4cc3ccc4O)[C@H](O)c3ccc(c(Cl)c3)Oc3cc2cc(c3O[C@@H]2O[C@H](CO)[C@@H](O)[C@H](O)[C@H]2O[C@H]2C[C@](C)(N)[C@H](O)[C@H](C)O2)Oc2ccc(cc2Cl)[C@H]1O`, the MIC was 32 µg/mL (broth microdilution; ATCC 27736, cation-adjusted Mueller-Hinton broth; 18 to 20 h, 37 °C, 0.002% polysorbate 80).
The MIC of `CC1(C)[C@H](NC(=O)/C(=N\OC2(C(=O)O)CCCC2)c2csc(N)n2)C(=O)N1OS(=O)(=O)O` is reported as 0.25 µg/mL (agar dilution; 16-14, ESBL-producing).
For `CN[C@H](CC(C)C)C(=O)N[C@H]1C(=O)N[C@@H](CC(N)=O)C(=O)N[C@H]2C(=O)N[C@H]3C(=O)N[C@H](C(=O)N[C@H](C(=O)O)c4cc(O)cc(O)c4-c4cc3ccc4O)[C@H](O)c3ccc(c(Cl)c3)Oc3cc2cc(c3O[C@@H]2O[C@H](CO)[C@@H](O)[C@H](O)[C@H]2O[C@H]2C[C@](C)(NCc3ccc(OCc4cn(CC(=O)N[C@H](C(=O)N[C@@H](CCN)C(=O)N[C@H]5CCNC(=O)[C@H]([C@@H](C)O)NC(=O)[C@H](CCN)NC(=O)[C@H](CCN)NC(=O)[C@H](CC(C)C)NC(=O)[C@@H](CC(C)C)NC(=O)[C@H](CCN)NC5=O)[C@@H](C)O)nn4)c(OC)c3)[C@H](O)[C@H](C)O2)Oc2ccc(cc2Cl)[C@H]1O`, the MIC was 8 µg/mL (broth microdilution; ATCC 13883, cation-adjusted Mueller-Hinton broth; 18 to 20 h, 37 °C, 0.002% polysorbate 80).
`COc1cc(C(=O)Nc2ccc(C(=O)O)c(O)c2)ccc1NC(=O)c1ccc(NC(=O)[C@H](Cc2c[nH]nn2)NC(=O)c2ccc(NC(=O)/C(C)=C/c3ccc(O)cc3)cc2)cc1` has an MIC of 32 µg/mL (broth microdilution; ciprofloxacin-sensitive).
With `CC1(C)[C@H](NC(=O)/C(=N\OCc2c(Cl)cccc2Cl)c2nsc(N)n2)C(=O)N1OS(=O)(=O)O` the MIC was 32 µg/mL (agar dilution; ATCC 700603, ESBL-producing).
For `CCCCCC[N+](C)(C)CCCCOc1cc(OCCCC[N+](C)(C)CCCCCC)cc(OCCCC[N+](C)(C)CCCCCC)c1.[Br-].[Br-].[Br-]`, the MIC was greater than 250 µM (ATCC 4352).
`CC1(C)[C@H](NC(=O)/C(=N\OC2(C(=O)O)CCCCC2)c2csc(N)n2)C(=O)N1OS(=O)(=O)O` gave an MIC of 8 µg/mL (agar dilution; ATCC 700603, ESBL-producing).
For `CCCCCCCC[N+](C)(C)CCCCOc1cc(OCCCC[N+](C)(C)CCCCCCCC)cc(OCCCC[N+](C)(C)CCCCCCCC)c1.[Br-].[Br-].[Br-]`, the MIC was 4 µM (ATCC 4352).
The MIC of `CC1(C)[C@H](NC(=O)/C(=N\OCC(=O)N2CCC[C@@H]2C(=O)O)c2nsc(N)n2)C(=O)N1OS(=O)(=O)O` is reported as 16 µg/mL (agar dilution; 16-14, ESBL-producing).
`CC[C@H]1OC(=O)[C@H](C)[C@@H](OC(=O)Cc2cccc([N+](=O)[O-])c2)[C@H](C)[C@@H](O[C@@H]2O[C@H](C)C[C@H](N(C)C)[C@H]2O)[C@](C)(OC)C[C@@H](C)C(=O)[C@H](C)[C@@H](O)[C@]1(C)O` gave an MIC of greater than 32 µg/mL (microbial growth; ATCC700603).
The MIC of `C#CCO/N=C(\C(=O)N[C@@H]1C(=O)N(S(=O)(=O)O)[C@H]1C)c1csc(N)n1` is reported as 64 µg/mL (agar dilution; ATCC 700603 ESBL).
`CCCCCCCCCC[N+](C)(C)CCCCCCCCCCOc1cc(OCCCCCCCCCC[N+](C)(C)CCCCCCCCCC)cc(OCCCCCCCCCC[N+](C)(C)CCCCCCCCCC)c1.[Br-].[Br-].[Br-]` gave an MIC of 250 µM (ATCC 4352).
`CC1(C)[C@H](NC(=O)/C(=N\OCc2c(Cl)cccc2Cl)c2csc(N)n2)C(=O)N1OS(=O)(=O)O` gave an MIC of 64 µg/mL (agar dilution; ATCC 700603, ESBL-producing).
The MIC of `CCCCCC[N+](C)(C)CCCCCCCCOc1cc(OCCCCCCCC[N+](C)(C)CCCCCC)cc(OCCCCCCCC[N+](C)(C)CCCCCC)c1.[Br-].[Br-].[Br-]` is reported as 2 µM (ATCC 4352).
`C=CCO/N=C(\C(=O)N[C@@H]1C(=O)N(OS(=O)(=O)O)C1(C)C)c1csc(N)n1` has an MIC of 16 µg/mL (agar dilution; ATCC 700603, ESBL-producing).
`COc1c(NC(=O)c2ccc(NC(=O)c3ccc(NC(=O)[C@H](CC#N)NC(=O)c4ccc(NC(=O)/C(C)=C/c5ccc(O)cc5)cc4)cc3)c(OC)c2O)ccc(C(=O)O)c1O` has an MIC of 128 µg/mL (microbial growth, broth dilution).
